Results pooled from the literature.
Target: Serine/threonine-protein kinase VRK2 (VRK2, Homo sapiens, UniProt Q86Y07)

| Compound | assay | setting | scale | measurement | value |
| --- | --- | --- | --- | --- | --- |
| CCn1cc(C(=O)O)c(=O)c2c(N)c(F)c(NC3CCCCC3)cc21 | kinase activity | 0.1 µM, together with: ATP at Km | – | inhibition | -15% |
| C=CC(=O)N1Cc2nc(-c3cc(-c4cc(Cl)cnc4Cl)c(F)cc3F)n(-c3ccncn3)c2C1 | cell-free assay, inhibitor | 1 µM | – | inhibition | 5.3% |
| Cc1ccc(-c2c(/C=C(\C#N)C(=O)NC(C)C)n(CCCO)c3ncnc(N)c23)cc1 | cell-free assay, competition with immobilised ligand | 1 µM | – | remaining binding | 100% |
| COc1ccc(NC(=O)Nc2ccc3c(c2)C(=O)N(C(C)CO)CC(C)C(CN(C)Cc2ccc4c(c2)OCO4)O3)cc1 (stereo not drawn) | kinase activity, KinaseProfiler | 0.03 µM, species human | reference: control | remaining activity | 93% |
| C=CC(=O)N1CCCC(n2c(=O)c3ncccc3n(Cc3ccc(Oc4ccccc4)cc3)c2=O)C1 (stereo not drawn) | cell-free assay, competition with immobilised ligand | 1 µM | – | remaining binding | 63% |
| O=C(Cc1ccc(OCc2ccccc2)cc1)NC1(C(=O)O)CCN(C(=O)c2ccc(-c3cccc(Cl)c3)cc2)CC1 | enzyme activity, inhibitor | 10 µM | – | activity vs control | 97% |
| Cc1cc(NC(=O)[C@H](O)c2cc(F)cc(F)c2)ccc1-c1cnc(N)c(C(=O)NC(C)C)c1 | binding, competition with immobilised ligand | 1 µM | – | remaining binding | 57% |
| C=CC(=O)N1CCc2ccc(-n3c(=O)ccc4cnc5ccc(-c6cnn(C)c6)cc5c43)cc21 | KINOMEscan | 1 µM | reference: DMSO control | remaining binding | 89% |
| O=C=[N][Ru-4]123([n]4c5ccc(O)cc5c5c6c(c7cc(F)c[n+]1c7c54)C(=O)NC6=O)[S+]1CC[S+]2CC[S+]3CC1 (stereo not drawn) | enzyme activity | 100 nM, human enzyme, together with: 10 µM ATP | reference: untreated | remaining activity | 77% |
| COc1cc(Nc2nc(C)cc(-c3cnn4nc(OC)ccc34)n2)cc(C(F)(F)F)c1 | binding, competition with immobilised ligand | 1 µM | – | remaining binding | 100% |
| CNC(=O)C[C@H](Cc1ccc(C#N)cc1)NC(=O)c1cc(-c2ccc(CN[C@H](C)c3ccc(C)cc3)o2)ccc1Cl | enzyme activity, inhibitor | 1 µM | – | activity vs control | 96% |
| Nc1ncc2c(n1)-c1c([nH]c3ccc(C4=CCOCC4)cc13)CCC2 | binding, competition with immobilised ligand | 1 µM | – | remaining binding | 73% |
| Cc1nc2c(F)cc(-c3nc(Nc4ccc(CNC(=O)CCCCCCC(=O)NO)cc4)ncc3F)cc2n1C(C)C | enzyme activity, inhibitor | 1 µM | – | inhibition | 8% |
| NC(=O)C[C@H]1CCc2sc3ncnc(O[C@H]4CC[C@H](N5CCOCC5)CC4)c3c21 | enzyme activity, inhibitor | 10 µM | – | inhibition | -3% |
| Cc1cnc2nc1Nc1cccc(c1)COC/C=C/COCc1cc(ccc1OCCN1CCOCC1)N2 | binding, competition with immobilised ligand | 0.1 µM | – | remaining binding | 76% |

Excerpt of the above:
| Compound | assay | setting | scale | measurement | value |
| --- | --- | --- | --- | --- | --- |
| C=CC(=O)N1CCCC(n2c(=O)c3ncccc3n(Cc3ccc(Oc4ccccc4)cc3)c2=O)C1 (stereo not drawn) | cell-free assay, competition with immobilised ligand | 1 µM | – | remaining binding | 63% |
